Measurements gathered from unrelated publications.
Lines come from different studies, so protocols differ.
Cell line: MDA-MB-231

| SMILES | test | conditions | scale | endpoint | value |
| --- | --- | --- | --- | --- | --- |
| CCCCCCCCCCCCCCCOC(=O)/C=C/c1cc(O)c(O)c(OC)c1 | propidium iodide flow cytometry | concentration not given, 24 h | – | cells in G2/M phase | 25% |
| CC1(C)C(=CC=C2CCCC(C=CC3=[N+](CCCCCC(=O)O)c4ccccc4C3(C)C)=C2c2ccccc2)N(CCCCCC(=O)O)c2ccccc21 | – | added: 10% FBS | reference: serum-free medium | cellular uptake | decreased |
| CN[C@@H](C)C(=O)N[C@H]1CN(C(=O)Cc2ccccc2)CC[C@H]2CC[C@@H](C(=O)NCc3ccc(Br)cc3)N2C1=O | caspase-8, caspase-3, PARP cleavage, western blot | 24 h | – | onset concentration | ≥ 0.3 µM |
| CC1(C)C(=CC=C2C[N+](C)(C)CC(C=CC3=[N+](CCCCCC(=O)O)c4ccccc4C3(C)C)=C2Cl)N(CCCCCC(=O)O)c2ccccc21 | – | serum-free medium, added: BSP 250 µM | – | cellular uptake | increased |
| C=CC(OC(C)=O)c1cc(OC)c(OC(C)=O)c(OC)c1 (stereo not shown) | Western blot | IC50, 24 h | reference: untreated | Bcl-xL protein decrease | 30 to 50% |
| COc1ccc(C=CC(=O)c2cccc(O)c2)cc1 | cell growth, MTT | 100 µM, 48 h | reference: DMSO | inhibition | 99.8% |
| C=C[C@H](OC(C)=O)c1ccc(OC(C)=O)cc1 | cell growth or viability, MTT | – | – | IC20 | 2 µM |
| CC1OC2OC3C4=C(OC3(C)C12O)C(=O)c1c(O)cccc1C4=O (stereo not shown) | annexin V/PI flow cytometry | 4 µg/mL, 48 h | – | early apoptotic cells | 58.4% |
| C=CC(OC(C)=O)c1ccc(OC(C)=O)c(OC)c1 (stereo not shown) | Western blot, refers to: phospho-FAK/FAK | concentration not given, 24 h | – | phospho-FAK reduction | 70 to 94% |
| O=C(Cc1ccccc1)Nc1nc2ccccc2n1Cc1ccccc1 | qPCR, refers to: VEGF | 10 µM, 8 h, normoxia | – | mRNA level | decreased |

For quick reference, copied from above:
| SMILES | test | conditions | scale | endpoint | value |
| --- | --- | --- | --- | --- | --- |
| O=C(Cc1ccccc1)Nc1nc2ccccc2n1Cc1ccccc1 | qPCR, refers to: VEGF | 10 µM, 8 h, normoxia | – | mRNA level | decreased |
